Published values from different studies.
Numbered parts are unrelated; each lists some results of a single study. Values joined by “and” are separate records of one study, mostly repeats; a detail may differ.

Block 1 — method: RNA Bind-n-Seq; form: RNA; matrix: in vitro; concentration: 365 nM; reference: no-protein control; reading: higher = stronger binding
Target: RNA binding protein fox-1 homolog 2, RRM domain, GST-SBP tag (RBFOX2, Homo sapiens, UniProt O43251-10, residues 100-194)
Notes: natural RNA segment, single round, ends assumed
Residues (chain): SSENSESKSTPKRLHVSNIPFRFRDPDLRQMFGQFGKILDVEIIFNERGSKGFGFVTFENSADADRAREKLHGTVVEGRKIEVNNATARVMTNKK
Strand	RBNS enrichment (R)
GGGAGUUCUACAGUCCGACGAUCUCUGUCCCCGCCAGCAACUAUGUGUAAGGUGGGCCACUCUGUCCACAUUGCCUUUGUUAUCUUUUUUUCGGAUUGAGCUCAUAACAGCCUGUGGCCCCUCACAUUCUCCAUGGAAUUCUCGGGUGCCAA	0.256
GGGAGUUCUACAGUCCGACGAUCAUUUUUCUUGGGAAUUGAAAAAAAUUGAAAUAAAUAAAAAUGCAUUGAACAUCUUGCAUUCAAAAUCUUCACUGACAAUGCAGCCUCAUUCUUUUUUUUUCUUUUGCAAUUGGAAUUCUCGGGUGCCAA	0.741
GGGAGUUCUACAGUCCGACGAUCAAAGCGCUCAUUCAGCUUGGCAGGAUGCUCAGCAAACCCUGCUUUCUGCAUAACCACCACCAAUCCCUUUAACAAAUCAAUCUUACAACCCCCCACCCCGUUACCCUGACUGGAAUUCUCGGGUGCCAA	0.51
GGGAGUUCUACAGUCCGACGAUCAGAAAUAGGGUUACGUCCAUUAGGAAAAUCCCAGUUUGCAGGAGUGCAAUCACAUCAAAAAAACAACCAGCCAGGAUUAAAGGUAUUAUAAAUCCUCAUAGCGGAACAUUUGGAAUUCUCGGGUGCCAA	0.426
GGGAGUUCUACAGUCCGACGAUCUGUUCGUUUUAGUUUACUGGGGACACACAGGAGUCUUUCUGUAAUGACUUAUGUGGUAAAAUGUUUGAGAGUUUGCACUCAAUUUUAAAGAAUUUGCAGUUUCUAACAAGUGGAAUUCUCGGGUGCCAA	0.532
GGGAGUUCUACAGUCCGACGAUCGGUAGCUGCUUGUGCAGGUCCUGUGCCCAUGGCUUGCUGUGGAGGAGUGUGGCUGAUGGCCUGGGAGGUGGGUUUUCCAUAAUCAUUUCCAUUUGCUAGUUCUCAUGUGAUGGAAUUCUCGGGUGCCAA	0.47
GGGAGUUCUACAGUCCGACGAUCCUUUUCCCUAGGCUGUUCCGCGUGGGUUACCUUAUCACCCUGGAGCACUUGGUAUUCCAGACCCCUGACAUGAGGAAUGCAGGUUCACACUGUAAAGAGUUUGUGAAAGGUGGAAUUCUCGGGUGCCAA	0.314
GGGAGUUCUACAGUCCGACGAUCAGGAAAGGGUCAACACUAAGGGGAGACUGUUGUUGUUGUUGUUGUUGUUGUUGUUGUUGUUUUUCCUUAAUUUGAAAUCAUCUUAUUUUUUAAGACAAAUGUGAAAAUGAUGGAAUUCUCGGGUGCCAA	2.11

Block 2 — method: RNA Bind-n-Seq; form: RNA; matrix: in vitro; concentration: 100 nM; reference: input RNA pool; reading: higher = stronger binding
Target: RING finger protein unkempt homolog, zinc fingers 1-6, SBP tag (UNK, Homo sapiens, UniProt Q9C0B0, residues 30-357)
Chain of UniProt Q9C0B0 (30-357, looked up): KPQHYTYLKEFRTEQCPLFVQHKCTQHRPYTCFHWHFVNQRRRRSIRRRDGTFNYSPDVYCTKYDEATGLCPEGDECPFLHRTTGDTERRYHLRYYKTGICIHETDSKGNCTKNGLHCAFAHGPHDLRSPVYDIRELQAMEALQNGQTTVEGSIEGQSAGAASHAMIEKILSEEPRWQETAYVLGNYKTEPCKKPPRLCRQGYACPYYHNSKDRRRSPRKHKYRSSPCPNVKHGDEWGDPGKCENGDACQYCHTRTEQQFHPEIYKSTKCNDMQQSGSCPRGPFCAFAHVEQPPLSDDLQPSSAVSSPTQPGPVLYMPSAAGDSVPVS
Notes: RNA with constant flanks, vertebrate orthologous sites, ends assumed
Strand	bound/input enrichment
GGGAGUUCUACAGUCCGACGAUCUAUUCAGAAUCUUAAUAAAUUGCUCUGAGAUCCGAAAGUUGAUAUUGGAGGAUCCGACCAUAGGAUGCUGUUGCCAUAUUGUUUUGUUCUGGUUUUGGUUGAUUUUUUUUUUUUUUUAAUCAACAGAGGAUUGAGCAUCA	1.25 ratio
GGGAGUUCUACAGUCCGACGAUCGUGUUUUGGUACCACUCAAUGUACCAAUACUCAUCCUUUUUUCAUUAUACCAACUAUCACUAGAAAUAGGAGUUUAAUAUUUUAAAAAUUUUACAUUGCUGUAUAUUCAAAAUUUUAAAGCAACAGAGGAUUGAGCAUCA	0.511 ratio
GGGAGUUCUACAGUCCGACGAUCUCAGAGCAGCAUAGGCUGUUGAGCUGUGGAAAAAUGAGCUUUGCAUUUUUUAUAUUUAAAUAGGAUACUUUUAUAUGAUGGGUGCUCUGAGUGUGAAUGCAGCACUCUCCCUUUCAGAGCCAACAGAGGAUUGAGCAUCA	1.35 ratio
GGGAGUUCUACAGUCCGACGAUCCUGUGAGGGUCUACUGACCACUCACUAUUAUGUCUGGUAUCUGUAAACACUUUCUGUUCUUAGUCCUUUCCUUGUAAAAUUGAUGUUCUUUAAAAUUGUUAAUGUAUAACAGGGCUUAUGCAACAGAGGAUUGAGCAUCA	0.946 ratio
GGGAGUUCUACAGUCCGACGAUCGAUUUGGACCUAGGAGCCGAACCAGAGAGCUAGCAAAAGUAAAGCAGACGUGUAAAAGUAGAGCCCUGUGCAGCUGCCCGGCAACAGUACUACCGCUAGCAGCGGUGUGAAGGUAUUUAUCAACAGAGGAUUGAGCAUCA	0.462 ratio
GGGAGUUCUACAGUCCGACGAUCCGGAACAAAUGCCCAGCUCAGAGCACUCCCUACAGGGGUUCUUCGGCACCGGCGGUGAAGUGGAUGUAUCCUAUCAGCAGGACCCCAGUAGUCAAAACGCGGUGUCCUGCAGUCCCUCCACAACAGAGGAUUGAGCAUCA	0.16 ratio
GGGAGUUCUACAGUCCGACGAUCAGGAAAUGCUGGCUGCAAACCCUCAGGAUCGCCCAGAUGCUUUUGAACUAGAACUCAGAUUAGUACAAAUUGCAUUUAAAGAUAGCAGCUGGGAAACGUGACACAUACAUUGUUUGCAAACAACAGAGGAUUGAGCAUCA	0.605 ratio
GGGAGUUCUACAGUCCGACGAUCCUGUUGUUAAGCACUGUGUUCCAGACCGUGUCUGACUUUAGUGUAACCUAGGAGAUUUUAUAGUUUUAUUUUAAUGAAAUCCUGCUUGAUGCAGAGCAGCGGGGAGAGCAGUGUCUUCUACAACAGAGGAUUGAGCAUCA	2.8 ratio

Further values, each from its own experiment
Substance	tested on	test	test system	setting	scale	measurement	result
RBMXL2 (Homo sapiens, UniProt O75526)	RBMX (Homo sapiens, UniProt P38159)	cross-linking MS	–	hits only	–	interaction screen	cross-linked
CC(=O)N[C@@H](Cc1c[nH]c2ccccc12)C(=O)N[C@@H](CCC(=O)C=[N+]=[N-])C(=O)OC(C)C	–	UPLC-MS/MS, item: urate	C57BL/6 CES1-/- mice, EL4 tumour	subcutaneous, 0.3 mg/kg/day DON equivalent, 5 days	higher = more metabolite	metabolite peak area	2.81e+06 a.u. and 2.94e+06 a.u. and 4.5e+06 a.u. and 7.95e+06 a.u. and 2.2e+06 a.u. and 4.41e+06 a.u.

Repeated from above (block 2):
Strand	bound/input enrichment
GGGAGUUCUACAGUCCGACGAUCCUGUGAGGGUCUACUGACCACUCACUAUUAUGUCUGGUAUCUGUAAACACUUUCUGUUCUUAGUCCUUUCCUUGUAAAAUUGAUGUUCUUUAAAAUUGUUAAUGUAUAACAGGGCUUAUGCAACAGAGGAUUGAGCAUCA	0.946 ratio
